Measured values gathered from unrelated publications.
Each line is one published result; not all experiments were run side by side. Numbers after ± are the reported error. Values after ≈ are worked out from the molar mass of the structure shown.
Cell line: HeLa

Compound	assay	system	setting	scale	endpoint	value
N=C(N)NCCC[C@@H]1NC(=O)[C@H](CCCCN)NC(=O)[C@@H](Cc2ccc(O)cc2)NC(=O)[C@H](CC(=O)O)NC(=O)CNC1=O	cell growth or viability, MTT	–	48 h	–	GI50	79 µM
C=C1C(=O)OC2C=C(C)CCC=C(C(=O)OC(C)C(C)(O)C(=O)OC3C(OC(C)=O)C(C(=O)OC)=CCCC(C)=CC4OC(=O)C(=C)C43)CC(OC(=O)C(C)=CC)C12 (stereo not drawn)	PI staining flow cytometry	–	3 µM, 24 h	–	G2/M phase cells	22.9%
CC(C)(C)c1cc2c(O)c(c1)Cc1cc(C(C)(C)C)cc(c1OCC(=O)NCc1ccccn1)Cc1cc(C(C)(C)C)cc(c1O)Cc1cc(C(C)(C)C)cc(c1OCC(=O)NCc1ccccn1)COC2	cell growth or viability, MTT	–	15 µM, 72 h	–	inhibition	50%
CC[C@H](C)[C@H](NC(=O)[C@H](Cc1c[nH]cn1)NC(=O)[C@H](Cc1ccccc1)NC(=O)[C@@H](NC(=O)[C@H](C)NC(=O)[C@H](CC(N)=O)NC(=O)[C@H](Cc1c[nH]c2ccccc12)NC(=O)[C@@H](NC(=O)CNC(=O)CNC(=O)[C@H](CCCNC(=N)N)NC(=O)[C@H](CCCNC(=N)N)NC(=O)[C@H](CCCNC(=N)N)NC(=O)[C@H](CCC(N)=O)NC(=O)[C@H](CCCNC(=N)N)NC(=O)[C@H](CCCNC(=N)N)NC(=O)[C@H](CCCCN)NC(=O)[C@H](CCCCN)NC(=O)[C@H](CCCNC(=N)N)NC(=O)CNC(=O)[C@@H](N)Cc1ccc(O)cc1)C(C)C)[C@@H](C)O)C(=O)N[C@@H](Cc1c[nH]c2ccccc12)C(=O)N[C@@H](Cc1c[nH]cn1)C(=O)N[C@@H](CC(=O)O)C(N)=O	autophagy induction, measured: p62, LC3 lipidation	–	–	reference: Tat-Beclin 1, higher = more potent	relative potency	~2 fold
CC(C)(C)c1cc2c(O)c(c1)Cc1cc(C(C)(C)C)cc(c1OCC(=O)Nc1ccncc1)Cc1cc(C(C)(C)C)cc(c1O)Cc1cc(C(C)(C)C)cc(c1OCC(=O)Nc1ccncc1)COC2	cell growth or viability, MTT	–	15 µM, 72 h	–	inhibition	39%
COc1cc([C@@H]2c3cc4c(cc3[C@@H](OCc3cc(-c5ccc(C#N)cc5)no3)[C@H]3COC(=O)C23)OCO4)cc(OC)c1OC (stereo partly drawn)	cell growth or viability, SRB	–	48 h	–	GI50	3.64 µM
S=c1n(-c2ccccc2)c2c3ccccc3nc3[n+]2[n]1[Ir-3]12([S]3)([c]3ccccc3-c3sc4ccccc4[n+]31)[c]1ccccc1-c1sc3ccccc3[n+]12	–	–	–	reference: IC50 dark over IC50 light	phototoxicity index	> 8330
O=[N+]([O-])c1ccc(C=[N+]2N=C(Nc3ccccc3)[S][Pt-]2([Cl])[Cl])s1	altered cell morphology, microscopy	–	confluent cultures	–	minimal cytotoxic concentration	20 µM
CC(C)CCOc1cc(C(=O)C[n+]2ccn(Cc3ccccc3)c2)c(OCCC(C)C)c2ccccc12	qRT-PCR, measured: PCNA mRNA	–	10 µM	reference: control	inhibition	71.7%
Cc1ccc2c(Cl)cc(Cl)c([O-])c2n1.Cc1ccc2c(Cl)cc(Cl)c([O-])c2n1.[Co+2].c1ccc(-c2ccccn2)nc1	–	–	4.53 µM, 24 h	–	intracellular Ca2+ level	increased
O=[N+]([O-])c1ccc(/C=N/NC(=S)Nc2ccccc2)s1	altered cell morphology, microscopy	–	confluent cultures	–	cytotoxic concentration	≥ 20 µM
COc1ccc(-c2cc(COC3c4cc5c(cc4C(c4cc(OC)c(OC)c(OC)c4)C4C(=O)OCC34)OCO5)on2)cc1 (stereo not drawn)	Caspase-Glo 3/7	–	20 µg/mL, 24 h	–	caspase-3/7 activation	81.3%
O=c1c(/C=N/NC(=S)N/N=C/c2ccccc2O)coc2ccccc12	DCFDA flow cytometry	–	1 µM, 24 h	reference: control	intracellular H2O2 level	60 to 70%
[Cl][Pt-]1([Cl])[S]C(Nc2ccccc2)=N[N+]1=Cc1cccs1	altered cell morphology, microscopy	–	confluent cultures	–	minimal cytotoxic concentration	100 µM
CC(C)[C@H](NC(=O)[C@H](CCCNC(=N)N)NC(=O)C[C@@H](N)CCCN)C(=O)N[C@@H](Cc1c[nH]cn1)C(=O)N[C@@H](Cc1ccccc1)C(N)=O	Fluo-4 imaging	–	concentration not given	–	calcium spiking	inactive
NC(=S)N/N=C/c1cc(Cl)ccc1O	DCFDA flow cytometry	–	0.1 µM, 24 h	reference: untreated cells	reduction in H2O2 level	~15%
Clc1ccc(C=[N+]2N=C(Nc3ccccc3)[S][Pd-]2([Cl])[Cl])s1	altered cell morphology, microscopy	–	confluent cultures	–	minimal cytotoxic concentration	> 100 µM
CC(=O)N[C@H](CCCNC(=N)N)C(=O)N[C@H](CCCCN)C(=O)N[C@H](Cc1ccc(O)cc1)C(=O)N[C@H](CS)C(N)=O	Annexin V/PI flow cytometry	–	50 nM, 24 h	–	late apoptotic cells	17.8%

Compound	assay	system	setting	scale	endpoint	value
O=C(Cc1ccc(-c2ccc(OCCN3CCOCC3)cc2)cn1)NCc1ccc(F)cc1	western blot, measured: phospho-FAK	–	50 nM, 6 h	–	protein level	decreased
COc1cc2c(=O)c(-c3ccc4c(c3)OCO4)coc2c2c1OC(C)(C)C=C2	annexin V/PI flow cytometry	–	2.5 µM, 48 h	–	apoptotic cells	18%
O=C(/C=C/c1ccccc1)Oc1ccc2c(c1)O/C(=C\C=C\c1ccccc1)C2=O	Western blot	–	0.3 to 10 µM, 24 h	–	p62 level	increased
O=c1c(/C=N/NC(=S)N/N=C/c2cc(Cl)ccc2O)coc2ccccc12	DHE flow cytometry	–	1 µM, 24 h	reference: control	superoxide level	150 to 160%
C[C@H]1O[C@@H]2C3=C(O[C@]2(C)[C@@]1(O)C=O)C(=O)c1c(O)cccc1C3=O	cell growth or viability, MTT	–	48 h	–	EC50	7.27 µg/mL (≈ 22 µM)
Cc1cc(/C=C2\CN(C(C)C)C/C(=C\c3cc(C)c(O)c(C)c3)C2=O)cc(C)c1O	PI flow cytometry	–	5 µM, 24 h	–	G2/M phase cells	20.2 ± 1.66%
COc1ccc(CCC(=O)Nc2nc3ccc(Cl)cc3s2)cc1OC	shotgun lipidomics, measured: CE 16:0 and 18:1	–	10 µM, 18 h	–	cholesteryl ester level	decreased
CO.Cc1ccc2c(Cl)cc(Cl)c([O-])c2n1.Cc1ccc2c(Cl)cc(Cl)c([O-])c2n1.[Co+2].c1ccc2nc3c4cccnc4c4ncccc4c3nc2c1	flow cytometry	–	0.80 nM, 24 h	–	apoptotic cells	95.7%
CC1=[N+]2N=C(c3ccccc3)[O][Pd-2]2([Cl])[O+]=C2Oc3ccccc3C=C21 (stereo not drawn)	flow cytometry	–	IC50, 24 h	–	G0/G1 phase cells	46.5%
COc1cc(C(=O)c2[nH]c(N)nc2-c2cccs2)cc(OC)c1OC	measured: phospho-histone H3	–	200 nM, 12 h	–	mitotic cells	23 ± 0.7%
CNC(=O)c1c(C)oc2cc(Oc3ncnc4cc(OC)c(OCCCCCCC(=O)NO)cc34)ccc12	annexin V/7-AAD flow cytometry	–	1.5 µM, 48 h	–	apoptotic cells	18.3%
CC(C)[C@@H]1NC(=O)[C@H](Cc2ccc(O)cc2)NC(=O)[C@H](CCCNC(=N)N)NC(=O)[C@H](CCCNC(=N)N)NC(=O)[C@@H]2CCCN2C(=O)[C@H]2CCCN2C(=O)[C@@H](CCCNC(=N)N)NC(=O)[C@H](Cc2ccc3ccccc3c2)NC(=O)[C@H](Cc2ccccc2)NC(=O)[C@H](CC(N)=O)NC1=O	flow cytometry	NF-labelled via miniPEG-Lys at Asn	5 µM, 2 h	reference: CPP9 cyclo(fΦRrRrQ) as 100%	cytosolic entry efficiency	34%
CC(C)(C)c1cc2c(O)c(c1)Cc1cc(C(C)(C)C)cc(c1OCC(=O)Nc1cncc3ccccc13)Cc1cc(C(C)(C)C)cc(c1O)Cc1cc(C(C)(C)C)cc(c1OCC(=O)Nc1cncc3ccccc13)COC2	cell growth, MTT	–	15 µM	–	inhibition	75 to 94%
COc1cc2c(Nc3ccc(NC(=O)c4ccccc4)cc3)ncnc2cc1OCCCN1CCOCC1	immunoblot	–	concentration not given, 1 h after nocodazole release	–	cyclin B1 level	not detected
CC(C)(C)c1cc2c(O)c(c1)Cc1cc(C(C)(C)C)cc(c1OCC(=O)Nc1nccs1)Cc1cc(C(C)(C)C)cc(c1O)Cc1cc(C(C)(C)C)cc(c1OCC(=O)Nc1nccs1)COC2	cell growth or viability, MTT	–	15 µM, 72 h	–	inhibition	54%
O=C(/C=C/c1ccc(O)cc1)OC(CO)C(=O)O (stereo not drawn)	Wnt/β-catenin signalling, RT-qPCR, measured: AXIN2 and B9L	–	25 µM, 6 h, together with: LiCl 20 mM	reference: TBP	mRNA level	no effect
[Cl][Pt-]1([Cl])[S]C(Nc2ccccc2)=N[N+]1=Cc1ccc(-c2ccccc2)s1	altered cell morphology, microscopy	–	confluent cultures	–	minimal cytotoxic concentration	100 µM
CC(C)CCOc1cc(C[n+]2cn(CCC(C)C)c3ccccc32)c(OCCC(C)C)c2ccccc12	qRT-PCR, measured: PCNA mRNA	–	5 µM	–	inhibition	50%

Some of these lines once more:
Compound	assay	system	setting	scale	endpoint	value
COc1cc2c(=O)c(-c3ccc4c(c3)OCO4)coc2c2c1OC(C)(C)C=C2	annexin V/PI flow cytometry	–	2.5 µM, 48 h	–	apoptotic cells	18%
O=C(/C=C/c1ccccc1)Oc1ccc2c(c1)O/C(=C\C=C\c1ccccc1)C2=O	Western blot	–	0.3 to 10 µM, 24 h	–	p62 level	increased
